# Measured values from different studies.
# Lines come from different studies, so protocols differ. “And” joins repeats or separate records; there may be more than shown. ± gives the spread as reported.
# Sequence of UniProt Q9ULC6 (whole entry, looked up): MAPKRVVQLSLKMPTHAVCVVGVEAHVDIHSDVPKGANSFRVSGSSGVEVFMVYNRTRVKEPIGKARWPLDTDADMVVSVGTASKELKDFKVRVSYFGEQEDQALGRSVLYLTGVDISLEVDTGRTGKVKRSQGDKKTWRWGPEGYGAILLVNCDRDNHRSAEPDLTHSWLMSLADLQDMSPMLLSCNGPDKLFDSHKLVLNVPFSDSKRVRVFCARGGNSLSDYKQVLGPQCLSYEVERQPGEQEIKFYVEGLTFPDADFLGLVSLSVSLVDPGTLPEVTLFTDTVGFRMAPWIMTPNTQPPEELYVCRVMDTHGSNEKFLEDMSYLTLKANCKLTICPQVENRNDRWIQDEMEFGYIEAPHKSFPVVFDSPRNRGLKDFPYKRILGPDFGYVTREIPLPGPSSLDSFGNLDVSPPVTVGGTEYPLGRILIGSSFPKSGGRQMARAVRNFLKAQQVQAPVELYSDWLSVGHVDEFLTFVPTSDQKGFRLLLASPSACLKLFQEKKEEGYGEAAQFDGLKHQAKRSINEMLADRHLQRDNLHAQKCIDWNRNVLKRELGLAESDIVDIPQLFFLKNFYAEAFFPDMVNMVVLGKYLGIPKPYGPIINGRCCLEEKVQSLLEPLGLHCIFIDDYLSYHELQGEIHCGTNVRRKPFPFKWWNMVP
# Sequence of UniProt Q9HBH9 (whole entry, looked up): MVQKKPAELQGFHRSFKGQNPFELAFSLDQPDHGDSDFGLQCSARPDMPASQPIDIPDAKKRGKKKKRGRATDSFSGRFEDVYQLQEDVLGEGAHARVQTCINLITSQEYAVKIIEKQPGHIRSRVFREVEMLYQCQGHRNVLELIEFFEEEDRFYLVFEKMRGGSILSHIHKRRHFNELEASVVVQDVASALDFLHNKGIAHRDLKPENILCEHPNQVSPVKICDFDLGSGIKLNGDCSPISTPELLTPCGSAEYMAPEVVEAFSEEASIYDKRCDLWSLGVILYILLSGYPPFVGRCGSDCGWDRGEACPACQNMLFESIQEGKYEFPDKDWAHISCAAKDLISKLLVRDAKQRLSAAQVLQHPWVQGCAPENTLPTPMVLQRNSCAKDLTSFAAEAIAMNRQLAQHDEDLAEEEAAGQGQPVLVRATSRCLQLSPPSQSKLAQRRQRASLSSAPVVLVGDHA
# Sequence of UniProt Q9BYT3 (whole entry, looked up): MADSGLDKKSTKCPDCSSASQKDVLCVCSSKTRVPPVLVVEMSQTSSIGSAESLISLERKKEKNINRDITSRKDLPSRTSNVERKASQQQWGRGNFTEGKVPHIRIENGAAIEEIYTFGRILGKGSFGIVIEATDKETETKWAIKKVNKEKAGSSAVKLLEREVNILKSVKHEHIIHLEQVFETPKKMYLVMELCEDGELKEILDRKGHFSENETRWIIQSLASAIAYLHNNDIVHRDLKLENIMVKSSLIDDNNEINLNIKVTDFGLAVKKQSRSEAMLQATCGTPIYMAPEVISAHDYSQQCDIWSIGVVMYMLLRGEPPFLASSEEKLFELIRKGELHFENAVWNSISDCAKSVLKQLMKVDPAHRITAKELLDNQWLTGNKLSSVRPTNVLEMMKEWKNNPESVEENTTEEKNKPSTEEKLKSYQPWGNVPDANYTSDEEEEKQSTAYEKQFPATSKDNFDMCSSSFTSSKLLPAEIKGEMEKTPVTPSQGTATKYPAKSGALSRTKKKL
# Sequence of UniProt P50406 (whole entry, looked up): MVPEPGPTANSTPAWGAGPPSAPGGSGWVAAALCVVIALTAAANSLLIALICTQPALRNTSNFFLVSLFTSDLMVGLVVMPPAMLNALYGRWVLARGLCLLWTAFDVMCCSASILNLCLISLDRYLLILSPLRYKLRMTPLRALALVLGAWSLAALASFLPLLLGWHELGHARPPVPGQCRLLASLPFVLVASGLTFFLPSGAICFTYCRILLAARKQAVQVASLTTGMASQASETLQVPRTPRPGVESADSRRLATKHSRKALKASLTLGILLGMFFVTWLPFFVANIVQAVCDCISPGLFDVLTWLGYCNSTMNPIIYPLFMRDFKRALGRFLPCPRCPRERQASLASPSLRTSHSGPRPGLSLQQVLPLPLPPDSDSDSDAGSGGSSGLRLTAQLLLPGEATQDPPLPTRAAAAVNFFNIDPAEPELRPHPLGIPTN
# Sequence of UniProt P43235 (whole entry, looked up): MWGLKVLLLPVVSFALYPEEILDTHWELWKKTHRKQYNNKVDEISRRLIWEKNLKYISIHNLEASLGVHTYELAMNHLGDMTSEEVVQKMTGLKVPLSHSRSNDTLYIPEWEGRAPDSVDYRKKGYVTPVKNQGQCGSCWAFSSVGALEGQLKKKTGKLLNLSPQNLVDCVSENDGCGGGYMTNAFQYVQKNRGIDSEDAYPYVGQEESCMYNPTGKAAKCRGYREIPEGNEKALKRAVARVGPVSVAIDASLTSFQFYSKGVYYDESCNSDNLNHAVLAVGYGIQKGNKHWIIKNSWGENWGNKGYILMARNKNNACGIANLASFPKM
# Sequence of UniProt P21554 (whole entry, unmodified, looked up): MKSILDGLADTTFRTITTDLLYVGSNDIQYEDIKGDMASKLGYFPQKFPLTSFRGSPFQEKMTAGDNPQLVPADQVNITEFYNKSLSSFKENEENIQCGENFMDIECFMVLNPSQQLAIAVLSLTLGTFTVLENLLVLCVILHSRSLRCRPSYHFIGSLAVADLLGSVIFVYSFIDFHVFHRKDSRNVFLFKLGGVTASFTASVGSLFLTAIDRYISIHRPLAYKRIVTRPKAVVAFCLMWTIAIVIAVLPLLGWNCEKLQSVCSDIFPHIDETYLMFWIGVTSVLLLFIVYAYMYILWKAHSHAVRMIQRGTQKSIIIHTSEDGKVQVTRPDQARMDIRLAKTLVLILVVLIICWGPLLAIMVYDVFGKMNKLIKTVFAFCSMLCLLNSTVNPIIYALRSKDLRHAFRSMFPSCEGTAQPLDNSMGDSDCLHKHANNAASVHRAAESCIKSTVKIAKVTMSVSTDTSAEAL
# Sequence of UniProt Q9Y2H1 (whole entry, looked up): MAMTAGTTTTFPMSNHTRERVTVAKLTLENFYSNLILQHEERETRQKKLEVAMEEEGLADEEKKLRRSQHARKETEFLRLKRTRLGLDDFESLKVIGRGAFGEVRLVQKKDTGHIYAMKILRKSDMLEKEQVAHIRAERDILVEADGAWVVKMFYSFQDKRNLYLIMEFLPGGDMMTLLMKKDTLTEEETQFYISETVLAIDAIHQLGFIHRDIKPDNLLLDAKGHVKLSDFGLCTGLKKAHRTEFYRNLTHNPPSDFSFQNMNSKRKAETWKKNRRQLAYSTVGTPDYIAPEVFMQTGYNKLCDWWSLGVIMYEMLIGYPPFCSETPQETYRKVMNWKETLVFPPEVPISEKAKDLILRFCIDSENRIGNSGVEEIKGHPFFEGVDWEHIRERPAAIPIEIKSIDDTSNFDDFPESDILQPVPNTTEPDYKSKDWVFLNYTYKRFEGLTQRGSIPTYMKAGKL
# Sequence of UniProt Q9UHD2 (whole entry, looked up): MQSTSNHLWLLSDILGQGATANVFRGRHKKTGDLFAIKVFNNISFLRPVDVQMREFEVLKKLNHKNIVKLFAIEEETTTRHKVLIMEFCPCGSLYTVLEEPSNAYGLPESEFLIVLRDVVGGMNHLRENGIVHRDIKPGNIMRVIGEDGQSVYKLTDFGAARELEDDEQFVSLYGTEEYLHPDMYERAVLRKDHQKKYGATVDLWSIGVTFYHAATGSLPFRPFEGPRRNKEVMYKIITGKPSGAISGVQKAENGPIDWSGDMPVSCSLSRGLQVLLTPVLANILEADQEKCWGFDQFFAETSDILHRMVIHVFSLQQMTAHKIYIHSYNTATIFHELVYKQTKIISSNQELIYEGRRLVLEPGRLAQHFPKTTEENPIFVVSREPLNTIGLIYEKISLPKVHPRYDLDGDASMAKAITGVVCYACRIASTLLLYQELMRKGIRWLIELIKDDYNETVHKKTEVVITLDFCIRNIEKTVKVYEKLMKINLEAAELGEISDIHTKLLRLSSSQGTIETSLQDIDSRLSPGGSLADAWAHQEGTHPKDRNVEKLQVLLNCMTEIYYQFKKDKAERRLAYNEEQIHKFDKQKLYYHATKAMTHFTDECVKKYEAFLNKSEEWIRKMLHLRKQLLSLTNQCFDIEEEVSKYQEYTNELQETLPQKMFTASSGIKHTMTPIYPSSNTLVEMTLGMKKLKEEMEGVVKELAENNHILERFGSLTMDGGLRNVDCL
# Sequence of UniProt Q3UFF7 (whole entry, looked up): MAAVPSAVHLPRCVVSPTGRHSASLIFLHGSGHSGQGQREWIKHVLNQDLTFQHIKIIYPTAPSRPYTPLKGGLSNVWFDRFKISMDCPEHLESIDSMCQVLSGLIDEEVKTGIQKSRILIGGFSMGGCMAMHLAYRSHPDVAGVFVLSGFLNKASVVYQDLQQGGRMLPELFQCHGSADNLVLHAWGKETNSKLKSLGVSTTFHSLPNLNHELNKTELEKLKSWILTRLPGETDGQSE
SMILES,target or system,assay,system,setting,how to read,quantity,value
O=C1NC2(CC2)COc2ncc(F)cc2[C@H]2COCCN2c2ccn3ncc1c3n2,,,"Sprague-Dawley rat, male, testes","oral, 20 mg/kg/day, 4 weeks, end of treatment",,organ-to-body weight ratio,0.768 ± 0.072%
CN(C)[C@H]1C[C@@]23CC[C@@]4(O2)C(=CC[C@]2(C)[C@@H](c5ccc6ccncc6c5)CC[C@H]24)C=C3[C@@H](O)[C@@H]1O,"STK38L (Homo sapiens, UniProt Q9Y2H1)","ATP probe labelling, inhibitor, KiNativ profiling",,1 µM,,inhibition,3.2%
CC(C)[C@H]1NC(=O)C[C@H]2/C=C/CCSSC[C@@H](NC1=O)C(=O)N[C@H](Cc1cccc3ccccc13)C(=O)NCC(=O)O2,"TBK1 (Homo sapiens, UniProt Q9UHD2)","enzyme activity, inhibitor",,10 µM,,inhibition,4%
CC(C)CC(O)(CC(C)C)c1cn(C(=O)N2CCCC2)nn1,"Lysophospholipase-like protein 1 (Mus musculus, UniProt Q3UFF7)","probe labelling, inhibitor, refers to: Lyplal1","mouse, brain","i.p., 0.8 mg/kg, 4 h, protein level","baseline: treated over vehicle mice, lower = stronger inhibition",activity ratio-of-ratios,1.58
Cc1sc2c(c1C)C(c1ccc(Cl)cc1)=NC(CC(=O)OC(C)(C)C)c1nnc(C)n1-2 (centres unmarked),"HTR6 (Homo sapiens, UniProt P50406)","ligand displacement, radioligand",,1 µM,,remaining binding,97.7%
CC(C)CC(C(=O)N1CC2(CC1C#N)C(=O)Nc1ccccc12)N(C)C(=O)c1cc2c(F)cc(F)c(F)c2[nH]1 (centres unmarked),"Cathepsin K (CTSK, Homo sapiens, UniProt P43235)",,,,,Hill slope,-0.62
N[C@H](C(=O)N1CCCC1)C1CCN(c2nccc3c(-c4ncc(Cl)cc4Cl)cccc23)CC1,"PADI1 (Homo sapiens, UniProt Q9ULC6)",enzyme activity,,"1.536 µM, added: Ca2+ 0.25 mM",,kcat,0.0206 s⁻¹ and 0.0272 s⁻¹
CS(C)(=O)=Nc1ccc(-c2ccc(-c3nc4cc(O[C@@H]5CO[C@H]6[C@@H]5OC[C@H]6O)[nH]c4cc3F)cc2)cc1,"STK33 (Homo sapiens, UniProt Q9BYT3)","enzyme activity, inhibitor",,10 µM,,inhibition,5%
Nc1ccc(/C=C/C(=O)N2CCc3c(oc4c(-c5ccc(F)cc5)cc(-c5ccc(C(=O)N6CCC(F)(F)CC6)cn5)cc34)C2)cn1,"KIT (Homo sapiens, UniProt P10721, T670I/V559D)","binding, competition with immobilised ligand",,1 µM,,remaining binding,99%
O=C1NC(=O)c2c1c1cc(F)c[n+]3c1c1c2c2cc(O)ccc2[n]1[Ru-4]312([N]=C=S)[S+]3CC[S+]1CC[S+]2CC3 (centres unmarked),"MKNK2 (Homo sapiens, UniProt Q9HBH9)",enzyme activity,,"100 nM, human enzyme, added: 10 µM ATP",baseline: untreated,remaining activity,83%
Cc1ccc2c(C(C[N+](=O)[O-])c3cccs3)c(-c3ccccc3)[nH]c2c1 (centres unmarked),"CNR1 (Homo sapiens, UniProt P21554, I169A)","β-arrestin2 recruitment, NanoBiT",,concentration not given,,inhibition,inhibited

# Some of these lines once more:
SMILES,target or system,assay,system,setting,how to read,quantity,value
O=C1NC2(CC2)COc2ncc(F)cc2[C@H]2COCCN2c2ccn3ncc1c3n2,,,"Sprague-Dawley rat, male, testes","oral, 20 mg/kg/day, 4 weeks, end of treatment",,organ-to-body weight ratio,0.768 ± 0.072%
